Experimental data of several laboratories.
Compare with care: the assays were run in different laboratories. ± gives the spread as reported.
Cell line: HepG2

For `N#Cc1cccc(-c2ccc(=O)n(Cc3cccc(-c4ncc(OCC5CCN(CCCCC(=O)Nc6cccc7c6C(=O)N(C6CCC(=O)NC6=O)C7=O)CC5)cn4)c3)n2)c1` (stereo not drawn), the IC50 was 0.399 µM (cell growth or viability, CCK-8; 72 h).
The IC50 of `Cc1cc(C=O)cc(C)c1Oc1cc(Nc2ccc(C#N)cc2)nc2ccncc12` is reported as > 127 µM (48 h).
The IC50 of `C/C(=N\N=C1/NC(=O)CS1)c1c(O)c2ccccc2oc1=O` is reported as 97.7 µM (cell growth or viability, MTT; 48 h).
`CC(=NN=c1sc(C(=O)c2ccccc2)nn1-c1ccccc1)c1ccc(S(=O)(=O)N2CCC(C)CC2)cc1` gave an IC50 of 3.31 µM (cell growth or viability, MTT).
With `COc1ccc2c(c1)OCc1c-2oc2cc3c(cc12)OCO3` the IC50 was 25.4 µM (cell growth or viability, MTT; 72 h).
For `COc1cc(/C=C/C(=O)/C=C/c2cn(-c3ccccc3)nc2C(=O)O)ccc1O`, the IC50 was > 25 µM (cell growth; 72 h).
With `COc1ccc(-c2ocnc2-c2cc(Br)c(OC)c(OC)c2)cc1OCCCC(=O)NO` the IC50 was 0.6 µM (cell growth or viability, crystal violet; 48 h).
`O=C(/C=C/c1ccc2c(c1)OCO2)/C=C/c1cn(-c2ccccc2)nc1C(=O)O` gave an IC50 of > 25 µM (cell growth; 72 h).
For `Nc1nc(-c2ccc3nc(-c4ccc(I)cc4)[nH]c3c2)c[nH]1`, the IC50 was 97.1 µM (cell growth or viability, XTT; 24 h).
`CCOc1cccc(/C=N/CCNc2ccccc2)c1O` has an IC50 of 116 µM (cell growth or viability, MTT; 48 h).
`C=C[C@H](OC(C)=O)c1ccc(OC(C)=O)cc1` gave an IC50 of 18 µM (cell growth or viability, MTT; 24 h).
The IC50 of `F[P-](F)(F)(F)(F)F.O=C(CCC(=O)[c-]1cccc1)NCCN(CC(=O)Nc1ccc(C#CCN(Cc2ccccn2)Cc2ccccn2)cc1)C(=O)CCc1cn(Cc2ccccc2)nn1.[C-]#[O+].[C-]#[O+].[C-]#[O+].[C-]#[O+].[C-]#[O+].[C-]#[O+].[Mn+].[Re+]` is reported as > 100 µM (cell growth or viability, resazurin; 48 h).
`COc1ccc(CS(=O)(=O)c2ccc3ccccc3c2)cc1NCC(=O)O` has an IC50 of 0.993 µM (cell growth or viability, MTS; 48 h).
`COc1ccc(-c2nnc(-c3ccccn3)[nH]2)cc1OC.COc1ccc(-c2nnc(-c3ccccn3)[nH]2)cc1OC.[Cu+2].[O-][Cl+3]([O-])([O-])[O-].[O-][Cl+3]([O-])([O-])[O-]` gave an IC50 of 91.1 µM (cell growth or viability, MTT; 24 h).
For `N#Cc1c(F)c(Cl)c2nc(SCc3ccccc3)nc(N)c2c1F`, the IC50 was 48.9 µM (cell growth or viability, MTT; 96 h).
With `COc1ccc(C(c2c[nH]c3ccc(OC)cc23)c2c[nH]c3ccc(OC)cc23)cc1` the IC50 was 8.27 µM (cell growth or viability, MTT; 24 h).
For `COc1ccc(NC(=O)c2c(Nc3ccccc3)sc(C(=O)N/N=C/c3ccc(OC)c(OC)c3)c2NC(C)=O)cc1`, the IC50 was 5.1 µM (cell growth or viability, SRB).
With `O=C(/C=C/C=C/c1ccccc1)c1ccccc1OCc1cc(F)cc(F)c1` the IC50 was 30.8 µM (cell growth or viability, MTT; 48 h).
For `COc1ccc2nc(Cl)c(-c3nc4cc(Cl)ccc4[nH]3)cc2c1`, the IC50 was 14.1 µM (cell growth or viability, MTT; 48 h).
With `CC(C)(C)c1cc2c(O)c(c1)Cc1cc(C(C)(C)C)cc(c1OCC(=O)NCc1ccccn1)Cc1cc(C(C)(C)C)cc(c1O)Cc1cc(C(C)(C)C)cc(c1OCC(=O)NCc1ccccn1)COC2` the IC50 was 22.7 µM (cell growth or viability, MTT; 72 h).
The IC50 of `N#Cc1cccc(-c2ccc(=O)n(Cc3cccc(-c4ncc(OCC5CCN(CC(=O)N6CCN(CCNc7ccc8c(c7)C(=O)N(C7CCC(=O)NC7=O)C8=O)CC6)CC5)cn4)c3)n2)c1` (stereo not drawn) is reported as 1.95 µM (cell growth or viability, CCK-8; 72 h).
The IC50 of `CCn1c(-c2ccccc2)cs/c1=N/N=C(\C)c1c(O)c2ccccc2oc1=O` is reported as 86.9 µM (cell growth or viability, MTT; 48 h).
`O=C(Nc1ccc(F)cc1)c1ccccc1-n1c(=O)[nH]c2ccccc2c1=O` gave an IC50 of 14.2 µM (cell growth or viability, MTT; 24 h).
The IC50 of `Cc1cc(O)c2c(C(=O)[O-])[n+]3n(c2c1)CCCC3` is reported as > 50 µM (cell growth or viability, CCK-8; 24 h).
The IC50 of `C[C@]12CC[C@@H]3c4ccc(O)cc4CC[C@H]3[C@@H]1CC[C@@]2(O)c1cn(CC(=O)c2ccc(Cl)cc2)nn1` is reported as 17.8 µM (cell growth or viability, resazurin; 72 h).
With `COc1ccc(-c2cc(=O)c3c(O)cc(O[C@@H]4O[C@H](CO)[C@@H](O)[C@H](O)[C@H]4O)cc3o2)cc1OC` the IC50 was 27.9 µM (cell growth or viability, resazurin; 72 h).
`NC(=S)NNC(=O)c1cc2ccc(O)cc2oc1=O` gave an IC50 of 5.4 µM (cell growth or viability, SRB; 72 h).
The IC50 of `CCCCSc1nc(N)c2c(F)c(F)c(C#N)c(F)c2n1` is reported as 51.8 µM (cell growth or viability, MTT; 96 h).
For `CCOc1cccc2c1[O][Pt-2]1([Cl])[N+](=C2)c2ccccc2[NH+]1c1ccccc1` (stereo not drawn), the IC50 was 10.2 ± 0.24 µM (cell viability, MTT; 48 h).
With `O=C1CCCC2=C1C(c1cccs1)c1c([nH]c(=S)[nH]c1=S)O2` (stereo not drawn) the IC50 was 15.4 µM (cell growth or viability, MTT; 72 h).
`Cc1c(C(=O)NNC(=S)Nc2ccc(Cl)cc2)nnn1Cc1nc2ccccc2[nH]1` has an IC50 of 7.68 µM (cell growth or viability, MTT; 48 h).
With `COC(=O)[C@H](CC(C)C)NC(=O)CNC(=O)COc1ccc2c(C)cc(=O)oc2c1` the IC50 was 72.1 µM (cell growth or viability, MTT).
With `O=C1C(=NN=c2[nH]ccs2)c2cc(Cl)ccc2N1CCn1ncc2c(=O)[nH]cnc21` the IC50 was 1.74 µM (cell growth or viability, SRB; 72 h).
`Cc1cc2nc(-c3cc4ccccc4nc3Cl)[nH]c2cc1C` has an IC50 of 7.54 µM (cell growth or viability, MTT; 48 h).
The IC50 of `COc1cc2c(=O)oc3c(OC)c(OC)cc4c(=O)oc(c1OC)c2c34` is reported as 78.9 µM (cell growth or viability, MTT; 48 h).
With `CC(=O)N[C@@H]1[C@@H](OC(C)=O)[C@H](OC(C)=O)[C@@H](COC(C)=O)O[C@H]1Sc1nnc(-c2cc3ccccc3[nH]2)n1-c1ccc(Cl)cc1` the IC50 was 16.9 µM (cell growth or viability, MTT).
For `COc1ccccc1/C=N/NC(=O)c1cc2cc(Nc3nccc(-c4cccnc4)n3)ccc2[nH]1`, the IC50 was 10.9 µM (cell growth or viability, MTT; 48 h).
With `Cc1nc(CN(C)c2ncnc3c2cnn3CCO)cs1` the IC50 was > 50 µM (cell growth or viability, MTT).
For `COc1ccc2nc(Cl)c(-c3nc4ccccc4[nH]3)cc2c1`, the IC50 was 22.4 µM (cell growth or viability, MTT; 48 h).
For `CC1(C)CC[C@]2(C(=O)O)CC[C@]3(C)C(=CC[C@@H]4[C@@]5(C)CC[C@H](O[C@@H]6OC[C@H](O[C@@H]7O[C@H](CO)[C@@H](O)[C@H](O)[C@H]7O)[C@H](O)[C@H]6O)[C@@](C)(CO)[C@@H]5CC[C@]43C)[C@@H]2C1`, the IC50 was 1.12 µM (NF-κB activity, inhibitor, luciferase; TNF-stimulated).
For `CCCCSc1nc(N)c2c(F)c(C#N)c(F)c(F)c2n1`, the IC50 was 34.1 µM (cell growth or viability, MTT; 96 h).
`COc1cccc2cc(C(=O)NNc3nc(-c4ccccc4)cs3)c(=O)oc12` gave an IC50 of 116 µM (cell growth or viability, SRB; 72 h).
With `N#Cc1cccc(-c2ccc(=O)n(Cc3cccc(-c4ncc(OCC5CCN(CCCC(=O)Nc6cccc7c6C(=O)N(C6CCC(=O)NC6=O)C7=O)CC5)cn4)c3)n2)c1` (stereo not drawn) the IC50 was > 100 µM (cell growth or viability, CCK-8; 72 h).
The IC50 of `Clc1cc2nc(-c3cc4ccccc4nc3Cl)[nH]c2cc1Cl` is reported as 7.59 µM (cell growth or viability, MTT; 48 h).
`Cc1c(C)c(-c2ccc(-c3ccccc3)cc2)[c-](C)c1C.Cc1c(C)c(-c2ccc(-c3ccccc3)cc2)[c-](C)c1C.[Cl-].[Cl-].[Cl-].[Cl-].[Ir+3].[Ir+3]` (stereo not drawn) has an IC50 of > 50 µM (cell growth, MTT; 24 h).
`CC(=O)OC[C@@]12CCC[C@@](C)(CO)[C@H]1CC[C@@]13C[C@@H](C[C@H](O)[C@H]12)[C@H](C)C3=O` gave an IC50 of > 20 µM (cell growth or viability, MTT).
With `Cc1ccc2nc(Cl)c(-c3nc4cc(F)ccc4[nH]3)cc2c1` the IC50 was > 100 µM (cell growth or viability, MTT; 48 h).
`CCC1=C(CC)C2=[N+]3C1=Cc1c(CC)c(CC)c4[n]1[Ir-3]31([Cl])([C]#[O+])[n]3c(c(CC)c(CC)c3=CC3=[N+]1C(=C4)C(CC)=C3CC)=C2` gave an IC50 of > 50 µM (cell growth or viability, MTT; 72 h).
